Experimental data of several laboratories.
Lines come from different studies, so protocols differ. Values joined by “and” are separate records of one study, mostly repeats; a detail may differ. ± marks the error that the study gave.
GLP1R: Glucagon-like peptide 1 receptor (GLP1R, Homo sapiens, UniProt P43220)
T1: riboswitch RNA yjdF aptamer, L4 replaced by GAAA (Bacillus subtilis); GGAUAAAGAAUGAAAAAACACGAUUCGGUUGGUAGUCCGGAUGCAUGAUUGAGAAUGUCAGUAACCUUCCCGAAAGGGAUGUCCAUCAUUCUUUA

SMILES = O=C(O)c1ccc(Nc2ncc3c(n2)-c2ccc(Cl)cc2C(c2c(F)cccc2F)=NC3)cc1; target or system = EphA5(h); test = kinase activity; conditions = 1 µM; quantity = remaining activity; result = 80%
SMILES = NCC[C@H](O)C(=O)N[C@@H]1C[C@H](N)[C@@H](O[C@H]2O[C@H](CN)[C@@H](O)[C@H](O)[C@H]2O)[C@H](O)[C@H]1O[C@H]1O[C@H](CO)[C@@H](O)[C@H](N)[C@H]1O; target or system = Albumin (ALB, Bos taurus, UniProt P02769); test = tryptophan fluorescence quenching; conditions = 10 to 60 µM, 298 K; quantity = Stern-Volmer quenching constant; result = 1.99 10³ M⁻¹
SMILES = Cc1cc2nc3[nH]c(=O)[nH]c(=O)c3nc2cc1C; target or system = T1, riboswitch RNA yjdF aptamer, L4 replaced by GAAA (Bacillus subtilis); test = fluorescence titration; conditions = together with: 380 nM lumichrome; quantity = Kd; result = 30 nM
SMILES = CCOc1ccc(NC(=O)O[C@@H](Cn2nc(C(C)C)cc2C(C)C)C(C)C)cc1; target or system = Neuronal acetylcholine receptor; alpha4/beta2, (α4)2(β2)3 stoichiometry (Homo sapiens, UniProt P17787+P43681); test = ACh-evoked current, two-electrode voltage clamp; conditions = 1 µM, high-sensitivity stoichiometry, together with: ACh 1 µM; how to read = baseline: ACh alone; quantity = current; result = 983 ± 107%
SMILES = CC[C@H](C)[C@H](NC(=O)[C@H](Cc1ccccc1)NC(=O)[C@H](CCC(=O)O)NC(=O)[C@H](CCCNC(=N)N)NC(=O)[C@H](C)NC(=O)[C@H](C)NC(=O)[C@H](CCC(N)=O)NC(=O)[C@H](CCC(=O)O)NC(=O)[C@H](CCC(=O)O)NC(=O)[C@H](CC(C)C)NC(=O)[C@H](Cc1ccc(O)cc1)NC(=O)[C@H](CO)NC(=O)[C@H](CO)NC(=O)[C@@H](NC(=O)[C@H](CC(=O)O)NC(=O)[C@H](CO)NC(=O)[C@@H](NC(=O)[C@H](Cc1ccccc1)NC(=O)[C@@H](NC(=O)CNC(=O)[C@H](CCC(=O)O)NC(=O)[C@H](C)NC(=O)CCc1cnc[nH]1)[C@@H](C)O)[C@@H](C)O)C(C)C)C(=O)N[C@@H](C)C(=O)N[C@@H](Cc1c[nH]c2ccccc12)C(=O)N[C@@H](CC(C)C)C(=O)N[C@H](C(=O)N[C@@H](CCCNC(=N)N)C(=O)NCC(=O)N[C@@H](CCCNC(=N)N)C(=O)N[C@@H](CCCCNC(=O)COCCOCCNC(=O)COCCOCCNC(=O)CC[C@H](NC(=O)CCCCCCCCCCCCCCCCC(=O)O)C(=O)O)C(=O)NCC(=O)NCC(=O)N[C@@H](CO)C(=O)N[C@@H](CCCCNC(=O)[C@H](CCCCNc1c(NCCCCCN(O)C(=O)CCC(=O)NCCCCCN(O)C(=O)CCC(=O)NCCCCCN(O)C(C)=O)c(=O)c1=O)Nc1c(NCCCCCN(O)C(=O)CCC(=O)NCCCCCN(O)C(=O)CCC(=O)NCCCCCN(O)C(C)=O)c(=O)c1=O)C(=O)O)C(C)C; target or system = GLP1R; test = agonist, CRE luciferase reporter; system = BHK cells; conditions = Zr-loaded DFO conjugate, together with: 1% HSA; how to read = baseline: parent peptide; quantity = fold potency loss; result = 1.2
SMILES = CC[C@@H]1[C@H](F)C(=O)N[C@@H]1COc1nccc2cc(C(N)=O)c(OC)cc12; target or system = Serine/threonine-protein kinase STK11 (STK11, Homo sapiens, UniProt Q15831); test = ATP-site probe binding, ActivX profiling; system = THP-1 cell lysate; conditions = 0.04 mM, Lys2 site; quantity = inhibition; result = 12.2%
SMILES = O=C(Cc1cccnc1)Nc1ccc(C2CCCCC2)cc1; system = human liver microsomes; conditions = 1 µM, without NADPH; quantity = hepatic clearance; result = 3.9 mL/min/kg
SMILES = O=c1nc(SCc2cc(F)cc(C(F)(F)F)c2)nc(SCc2ccc3sccc3c2)[nH]1; target or system = DNA topoisomerase 2-alpha (TOP2A, Homo sapiens, UniProt P11388); test = ATPase activity; conditions = 7.8 µM, together with: ATP 0.25 mM; quantity = ATP hydrolysis rate; result = 1.15 µM/min and 1.23 µM/min
SMILES = [H]/N=C(/N)NCC(=O)O; target or system = Sodium- and chloride-dependent taurine transporter (SLC6A6, Homo sapiens, UniProt P31641, Y138A); test = binding, microscale thermophoresis; conditions = 1 mM, room temperature, together with: 50 nM labelled protein; how to read = higher = more binding; quantity = normalised MST signal; result = -0.0457
SMILES = CC[C@H](C)[C@H](NC(=O)[C@H](Cc1ccccc1)NC(=O)[C@H](CCC(=O)O)NC(=O)[C@H](CCCNC(=N)N)NC(=O)[C@H](C)NC(=O)[C@H](C)NC(=O)[C@H](CCC(N)=O)NC(=O)[C@H](CCC(=O)O)NC(=O)[C@H](CCC(=O)O)NC(=O)[C@H](CC(C)C)NC(=O)[C@H](Cc1ccc(O)cc1)NC(=O)[C@H](CO)NC(=O)[C@H](CO)NC(=O)[C@@H](NC(=O)[C@H](CC(=O)O)NC(=O)[C@H](CO)NC(=O)[C@@H](NC(=O)[C@H](Cc1ccccc1)NC(=O)[C@@H](NC(=O)CNC(=O)[C@H](CCC(=O)O)NC(=O)[C@H](C)NC(=O)CCc1cnc[nH]1)[C@@H](C)O)[C@@H](C)O)C(C)C)C(=O)N[C@@H](C)C(=O)N[C@@H](Cc1c[nH]c2ccccc12)C(=O)N[C@@H](CC(C)C)C(=O)N[C@H](C(=O)N[C@@H](CCCNC(=N)N)C(=O)NCC(=O)N[C@@H](CCCNC(=N)N)C(=O)N[C@@H](CCCCNC(=O)COCCOCCNC(=O)COCCOCCNC(=O)CC[C@H](NC(=O)CCCCCCCCCCCCCCCCC(=O)O)C(=O)O)C(=O)NCC(=O)NCC(=O)N[C@@H](CO)C(=O)N[C@@H](CCCCNc1c(NCCCCCN(O)C(=O)CCC(=O)NCCCCCN(O)C(=O)CCC(=O)NCCCCCN(O)C(C)=O)c(=O)c1=O)C(=O)NCC(=O)NCC(=O)N[C@@H](CO)C(=O)N[C@@H](CCCCNc1c(NCCCCCN(O)C(=O)CCC(=O)NCCCCCN(O)C(=O)CCC(=O)NCCCCCN(O)C(C)=O)c(=O)c1=O)C(=O)O)C(C)C; target or system = GLP1R; test = agonist, CRE luciferase reporter; system = BHK cells; conditions = Zr-loaded DFO conjugate, together with: 0% HSA; how to read = baseline: parent peptide; quantity = fold potency loss; result = 3.6
SMILES = O=S(=O)(O)O; target or system = GUK1 (Homo sapiens, UniProt Q16774); test = enzyme activity, NADH-coupled; conditions = 5 mM, together with: ATP 250 µM; quantity = reaction velocity; result = 0.101 µM/s and 0.0569 µM/s and 0.0835 µM/s
SMILES = Nc1ncnc2c1ncn2[C@@H]1O[C@H](COP(=O)(O)CP(=O)(O)OP(=O)(O)O)[C@@H](O)[C@H]1O; target or system = P2X purinoceptor 1 (P2RX1, Homo sapiens, UniProt P51575, L218T); test = calcium influx; conditions = 1 µM; how to read = baseline: ionomycin response; quantity = calcium influx; result = 91.1% and 100% and 94.7%
SMILES = CC(C)C[C@@H](C=O)NC(=O)[C@H](CC(C)C)NC(=O)[C@H](CC(C)C)NC(=O)OCc1ccccc1; target or system = NanoBiT HiBiT/LgBiT luciferase; test = inhibitor, HiBiT luminescence counterscreen; system = conditioned medium only; conditions = 5 µM, 24 h; how to read = baseline: vehicle; quantity = luminescence signal reduction; result = -1.32%
SMILES = CC[C@H](C)[C@H](NC(=O)[C@H](Cc1ccccc1)NC(=O)[C@H](CCC(=O)O)NC(=O)[C@H](CCCNC(=N)N)NC(=O)[C@H](C)NC(=O)[C@H](C)NC(=O)[C@H](CCC(N)=O)NC(=O)[C@H](CCC(=O)O)NC(=O)[C@H](CCC(=O)O)NC(=O)[C@H](CC(C)C)NC(=O)[C@H](Cc1ccc(O)cc1)NC(=O)[C@H](CO)NC(=O)[C@H](CO)NC(=O)[C@@H](NC(=O)[C@H](CC(=O)O)NC(=O)[C@H](CO)NC(=O)[C@@H](NC(=O)[C@H](Cc1ccccc1)NC(=O)[C@@H](NC(=O)CNC(=O)[C@H](CCC(=O)O)NC(=O)[C@H](C)NC(=O)CCc1cnc[nH]1)[C@@H](C)O)[C@@H](C)O)C(C)C)C(=O)N[C@@H](C)C(=O)N[C@@H](Cc1c[nH]c2ccccc12)C(=O)N[C@@H](CC(C)C)C(=O)N[C@H](C(=O)N[C@@H](CCCCNC(=O)COCCOCCNC(=O)COCCOCCNC(=O)CC[C@H](NC(=O)CCCCCCCCCCCCCCCCC(=O)O)C(=O)O)C(=O)NCC(=O)N[C@@H](CCCNC(=N)N)C(=O)N[C@@H](CCCCNc1c(NCCCCCN(O)C(=O)CCC(=O)NCCCCCN(O)C(=O)CCC(=O)NCCCCCN(O)C(C)=O)c(=O)c1=O)C(=O)NCC(=O)NCC(=O)N[C@@H](CO)C(=O)N[C@@H](CCCCNc1c(NCCCCCN(O)C(=O)CCC(=O)NCCCCCN(O)C(=O)CCC(=O)NCCCCCN(O)C(C)=O)c(=O)c1=O)C(=O)NCC(=O)NCC(=O)N[C@@H](CO)C(=O)N[C@@H](CCCCNc1c(NCCCCCN(O)C(=O)CCC(=O)NCCCCCN(O)C(=O)CCC(=O)NCCCCCN(O)C(C)=O)c(=O)c1=O)C(=O)NCC(=O)NCC(=O)N[C@@H](CO)C(=O)N[C@@H](CCCCNc1c(NCCCCCN(O)C(=O)CCC(=O)NCCCCCN(O)C(=O)CCC(=O)NCCCCCN(O)C(C)=O)c(=O)c1=O)C(=O)O)C(C)C; target or system = GLP1R; test = agonist, CRE luciferase reporter; system = BHK cells; conditions = Zr-loaded DFO conjugate, together with: 0% HSA; how to read = baseline: parent peptide; quantity = fold potency loss; result = 6.3
SMILES = C=CC(=O)N1CCC(COCC(=O)N2CCN(c3nc(-c4cnc(N)nc4C(F)F)nc(N4CCOC[C@@H]4C)n3)CC2)CC1; target or system = Phosphatidylinositol 4,5-bisphosphate 3-kinase catalytic subunit gamma isoform (PIK3CG, Homo sapiens, UniProt P48736); test = KINOMEscan; conditions = 1 µM; quantity = remaining binding; result = 0.55%
SMILES = CC1CCCN(C(=O)c2cc3ncccn3n2)C1 (centres unmarked); target or system = Transcription intermediary factor 1-beta, PHD-bromodomain (TRIM28, Homo sapiens, UniProt Q13263); test = binding, affinity selection mass spectrometry; how to read = baseline: other proteins in batch; quantity = log fold enrichment; result = -0.0035
SMILES = CC(C)OCCn1c(=S)[nH]c(=O)c2[nH]ccc21; target or system = Myeloperoxidase (MPO, Homo sapiens, UniProt P05164); test = H2O2 consumption, inhibitor, H2O2 electrode; conditions = 10 µM, 0.1 s; quantity = H2O2 concentration; result = -1.34 µM
SMILES = CNc1ccc(-c2nc3ccc(O)cc3s2)cc1; target or system = Amyloid-beta precursor protein, amyloid-beta (APP, Homo sapiens, UniProt P05067); test = binding, competition binding; system = amyloid-beta aggregates; conditions = 33.33 nM, together with: tritiated amyloid ligand; quantity = inhibition; result = 87% and 78.8%
SMILES = COc1cc(Cl)c(C(=O)N[C@@H](CN[C@H]2CC[C@@H](N)CC2)Cc2ccc(C#N)cc2)cc1-c1ccc(CN[C@H](C)c2ccc(C)cc2)o1; target or system = ATPase family AAA domain-containing protein 2, bromodomain (ATAD2, Homo sapiens, UniProt Q6PL18); test = ITC; conditions = 37 °C; quantity = ΔH; result = -2.16 kcal/mol
SMILES = COCCN(C)C(=O)c1ccc([C@H]2[C@@H](F)[C@@H](F)C[C@@H](F)[C@H]2F)cc1; test = liver microsome stability; system = rat liver microsomes; conditions = 1 µM; quantity = hepatic clearance; result = 24 mL/min/kg
SMILES = O=C(O)c1ccc(Nc2c(-c3ccc(-c4ccccc4)cc3)nc3ccc(C(=O)O)cn23)cc1; target or system = Tyrosyl-DNA phosphodiesterase 2 (TDP2, Homo sapiens, UniProt O95551); test = gel-based fluorescence; how to read = baseline: TDP1 IC50 over TDP2 IC50; quantity = selectivity ratio; result = > 34
SMILES = CN1CCN(c2cc(-c3ccncc3)c(-c3ccc4ccccc4c3)nn2)CC1; target or system = Gastrin-releasing peptide receptor (GRPR, Homo sapiens, UniProt P30550); test = agonist, FLIPR; conditions = 12.5 µM; quantity = activation; result = -1.5%
SMILES = CCN(CC)C(=S)S; target or system = Receptor-type tyrosine-protein phosphatase C (PTPRC, Homo sapiens, UniProt P08575); test = enzyme activity; conditions = concentration not given, together with: DiFMUP; quantity = activity; result = inactive

A few entries again:
SMILES = NCC[C@H](O)C(=O)N[C@@H]1C[C@H](N)[C@@H](O[C@H]2O[C@H](CN)[C@@H](O)[C@H](O)[C@H]2O)[C@H](O)[C@H]1O[C@H]1O[C@H](CO)[C@@H](O)[C@H](N)[C@H]1O; target or system = Albumin (ALB, Bos taurus, UniProt P02769); test = tryptophan fluorescence quenching; conditions = 10 to 60 µM, 298 K; quantity = Stern-Volmer quenching constant; result = 1.99 10³ M⁻¹
SMILES = COc1cc(Cl)c(C(=O)N[C@@H](CN[C@H]2CC[C@@H](N)CC2)Cc2ccc(C#N)cc2)cc1-c1ccc(CN[C@H](C)c2ccc(C)cc2)o1; target or system = ATPase family AAA domain-containing protein 2, bromodomain (ATAD2, Homo sapiens, UniProt Q6PL18); test = ITC; conditions = 37 °C; quantity = ΔH; result = -2.16 kcal/mol
